Measured values of several laboratories.
± gives the spread as reported.

COc1cc(O)c(-c2cc(-c3cc(-c4c(O)cc(OC)c5c4C[C@@H](C)N[C@@H]5C)c4cc(C)cc(OC)c4c3O)c(O)c3c(OC)cc(C)cc23)c2c1[C@@H](C)N[C@H](C)C2 — compound remaining (metabolic stability; male CD-1 mouse, liver microsomes; 1 µM, 30 min): 99%
N#CC1(c2ccc3c(N)ncnn23)OC(COP(=O)(O)O)C(O)C1O (stereo not drawn) — AUC(0-t) (LC-MS/MS; CD-1 mouse, liver; oral, 100 mg/kg of remdesivir): 247000 nmol·h/kg
CC(C)[C@H](NC(=O)CNC(=O)[C@H](CCC(N)=O)NC(=O)[C@H](C)N)C(=O)O — AUC(0-inf) (human, both sexes, plasma; intravenous infusion, 15 mg/kg/h, 2 h infusion, geometric mean): 553 ng·h/mL
CC12CC(c3ccc(S(C)(=O)=O)cc3)C3=C4CCC(=O)C=C4CCC3C1CCC2(O)C(F)(F)C(F)(F)F (stereo not drawn) — AUC0–24 (human, plasma; oral, 4 mg, geometric mean, together with: itraconazole 200 mg/day): 302 ng·h/mL
Cc1ccc(C(C)C)cc1.O=C(N=P(c1ccccc1)(c1ccccc1)c1ccccc1)c1ccccn1.[Cl-].[Cl-].[Ru+2] — apparent clearance (ICP-MS, item: ruthenium; NOD.CB17-Prkdc scid/J mouse, plasma; intraperitoneal, 5 mg/kg, after first dose): 1.84 mL/h
C=CC(=O)Nc1cc(Nc2nccc(-c3cn(C4CC4)c4ccccc34)n2)c(OC)cc1N(C)CCNC — plasma concentration (radiolabelled metabolite profiling; human male, plasma; oral, 110 mg, 2 h): 8.88 ng/g
Cc1ccccc1-c1cc(N2CCNCC2)ncc1N(C)C(=O)C(C)(C)c1cc(C(F)(F)F)cc(C(F)(F)F)c1 — fu (human plasma; unbound fraction): < 0.03
CCCC[C@@H]1NC(=O)[C@@H](NC(=O)[C@H](CCC(=O)O)NC(=O)CNC(=O)CN2CCN(CC(=O)O)CCN(CC(=O)O)CCN(CC(=O)O)CC2)CCCCNC(=O)C[C@@H](C(N)=O)NC(=O)[C@H](C(C)C)NC(=O)[C@@H]2CCCN2C(=O)[C@H](CCCNC(=N)N)NC(=O)CNC(=O)[C@H](Cc2c[nH]c3ccccc23)NC(=O)[C@H](CCCNC(=N)N)NC(=O)[C@@H](Cc2ccccc2)NC(=O)[C@H](Cc2c[nH]cn2)NC(=O)[C@H](CCC(=O)O)NC1=O [gallium-67 labelled] — intestine uptake (C57 mice, B16/F10 lung metastases; intravenous, 0.037 MBq, 4 h): 1.13 ± 0.11 %ID
C[C@H]1C[C@@H](Oc2cccc(F)n2)CCN1Cc1cnc(N[11C](C)=O)s1 — fraction unbound (ultrafiltration; rhesus monkey, plasma): 9.87%
CCCCCCCCC=CCCCCCCCC(=O)OCC1OC(n2ccc(N)nc2=O)C(F)(F)C1O (stereo not drawn) — AUC (male beagle dog, plasma; intravenous, 4 mg/kg): 3.2 µM·h
COc1cnc2cccc(N3CCc4c(cc(Cn5ccnc5)cc4-c4cn(C)nc4C(F)(F)F)C3=O)c2c1 — dose-normalised AUC(0-last) ratio (CD-1 male mice, plasma; oral; relative to: 50 over 10 mg/kg): 2.6 fold
CCCC[C@H](NC(=O)CNC(=O)CNC(=O)CN1CCN(CC(=O)O)CCN(CC(=O)O)CCN(CC(=O)O)CC1)C(=O)N[C@H]1CC(=O)NCCCC[C@@H](C(N)=O)NC(=O)[C@H](Cc2c[nH]c3ccccc23)NC(=O)[C@H](CCCNC(=N)N)NC(=O)[C@@H](Cc2ccccc2)NC(=O)[C@H](Cc2c[nH]cn2)NC1=O [gallium-67 labelled] — tumour to tissue ratio (female C57 mice, B16/F1 melanoma; intravenous, 0.037 MBq, 0.5 h; relative to: tumour over kidney): 1.76
CC(C)(O)c1ncc([S@](N)(=O)=NC(=O)Nc2c3c(cc4c2CCC4)CCC3)s1 — AUC(0-last)/dose (healthy human, fasted; oral, 10 mg single dose, capsule formulation): 944 ng·h/mL/mg
CC[N+]1(Cc2ccc3ccc(O)c(C#N)c3n2)CCCC1CNC(=O)c1cc(S(N)(=O)=O)ccc1OC (stereo not drawn) — release yield (photolysis at 365 nm; KMOPS buffer; pH 7.2): 65%
COCCOCCOCCOCCOCCOCCOCCOCCOCCOCCOCCOCCNC(=O)CCC1(Cc2ccccc2)c2ccccc2-c2ccc(-c3sc(-c4c5c(c(-c6sc(-c7ccc8c(c7)C(CCC(=O)NCCOCCOCCOCCOCCOCCOCCOCCOCCOCCOCCOCCOC)(Cc7ccccc7)c7ccccc7-8)c7c6OCCO7)c6nsnc46)N=S=N5)c4c3OCCO4)cc21 (stereo not drawn) — blood half-life (NIR-II fluorescence; KM mice, female, whole blood; intravenous, 15 mg/kg): 0.9 h
CC(=O)N([O-])CCCCCNC(=O)CCC(=O)N([O-])CCCCCNC(=O)CCC(=O)N([O-])CCCCCN.[89Zr+4] — intact complex (radio-iTLC; aqueous buffer; 3 h, pH 5.5, 37 °C, EDTA challenge, together with: 100-fold excess EDTA): 69.9 ± 1.5%
CCCC[C@H](NC(=O)CNC(=O)CNC(=O)CN1CCN(CC(=O)O)CCN(CC(=O)O)CCN(CC(=O)O)CC1)C(=O)N[C@H]1CC(=O)NCCCC[C@@H](C(N)=O)NC(=O)[C@H](Cc2c[nH]c3ccccc23)NC(=O)[C@H](CCCNC(=N)N)NC(=O)[C@@H](Cc2ccccc2)NC(=O)[C@H](Cc2c[nH]cn2)NC1=O [copper-64 labelled] — uptake ratio (female C57 mouse, B16/F1 melanoma; intravenous, 0.037 MBq, 4 h; relative to: tumour over blood): 6.48
Cc1cccc(-c2cccc(C)n2)n1.Cc1cccc(-c2cccc(C)n2)n1.[Cl-].[Cl-].[Ru+2].c1ccc(-c2ccnc3c2ccc2c(-c4ccccc4)ccnc23)cc1 — release from nanoassemblies (phosphate buffer with NaCl; pH 7.4, 37 °C, photoactivated, dialysis): 55.9%
C=C(c1ccc(C(=O)O)c(F)c1)c1cc2c(cc1C)C(C)(C)C=CC2(C)C — HDL level (Sprague-Dawley rat, male, plasma; oral, 100 mg/kg, 3 h, sesame oil vehicle): 76 ± 12.8 mg/dL
C#CCOc1ccc(/C=C2\SC(=O)N(CC(=O)NCc3ccccc3)C2=O)cc1 — correlation volume (inverse Kirkwood-Buff integrals; binary solvent mixture; concentration not given, 298.15 K, mole fraction x1 0.55): 4250 cm³/mol
CCCCCCC(=O)C(=O)C(O)CO (stereo not drawn) — log air-water partition coefficient change (concentration not given; relative to: isobutyl AI-2): 0.63
COc1cc(NC(C)=O)c2c(c1O)-c1c(OC)c(OC)cc3c1C(C2)N(C)CC3 (stereo not drawn) — remaining compound (rat, processed plasma samples; 100 µg/mL, 24 h, room temperature, post-preparative storage): 93.6 ± 3.1%
N=C(N)NCCC[C@@H]1NC(=O)[C@H](Cc2c[nH]c3ccccc23)NC(=O)[C@@H](CC2CCCCC2)NC(=O)[C@@H]2CCCN2C(=O)[C@@H](NC(=O)CCc2ccccc2)CCCNC1=O — apparent peripheral volume (V2/F) (C57BL/6J mice, brain; intraperitoneal, 1 mg/kg, two-compartment model): 0.19 µg/(ng/g)
OC1(C(F)(F)F)CCN(c2nc(Nc3ccnc(C(F)(F)F)c3)nc(-c3cccc(C(F)(F)F)n3)n2)C1 (stereo not drawn) — thymus volume and weight (monkey; at least 3 mg/kg, repeated-dose toxicity): decreased
O=C([O-])CN1CCN(CC(=O)[O-])CCN(CC(=O)NCC2CCC(C(=O)NC(Cc3ccc4ccccc4c3)C(=O)NCCCCC(NC(=O)NC(CCC(=O)O)C(=O)O)C(=O)O)CC2)CCN(CC(=O)[O-])CC1.[44Sc+3] (stereo not drawn) — intact complex (transmetallation stability; 4 h, 37 °C, together with: Ca2+ 10 mM): 97 ± 1.4%
Cc1cc2c(cc1C1(c3ncc(C(=O)O)cn3)CC1)C(C)(C)CCC2(C)C — blood cholesterol (Sprague-Dawley rat, male; oral, 100 mg/kg, 12 h, sesame oil vehicle): 50 ± 4.5 mg/dL
CC(=O)N[C@@H](CO)C(=O)N[C@@H](CC(=O)O)C(=O)N[C@@H](CCCCN)C(=O)N1CCC[C@H]1C(=O)O — haemorrhage incidence (H&E histology; rat embolic MCAO model; dose not given, start 1 h after MCAO, read day 7): 28%
Cc1ccccc1/N=N/c1ccc(/N=N/c2c(O)ccc3ccccc23)c(C)c1 — measured concentration (extracted rat blood QC samples; 0.5 µg/L, 12 h, room temperature, short-term stability): 0.501 µg/L
CCCCCCCCCCCCCCCCCC(=O)Nc1ccn(C2OC(CO)C(O)C2(F)F)c(=O)n1 (stereo not drawn) — release half-life (dialysis; PBS; pH 7.4, 37 °C): 2.11 h
C[C@H](NC(=O)COC(=O)[C@H](C)NC(=O)CO)C(=O)O — depolymerization half-life (water; pH 4, 50 °C): 26.1 h
C[C@H](CN(C)Cc1ccccc1)NC(=O)c1ccc(-c2noc(C(F)(F)[18F])n2)cc1 — brain-to-muscle ratio (PET; Sprague-Dawley rat, female, brain and muscle; intravenous, 10 min; relative to: brain SUV over muscle SUV): 4.01 ± 0.31
COC(=O)C(c1ccccc1Cl)N1CCC(SCC(=O)c2cccc(OC)c2)C(=CC(=O)O)C1 (mixture of isomers) — deviation from nominal (HPLC-MS/MS; feline EDTA plasma; 100 ng/mL, 72 h, -20 °C, storage stability): 2%
COc1cc2c(cc1OC)CN(CCCCn1ccc3cc(OCC[18F])ccc31)C2 — tracer uptake (male CD-1 mouse, pancreas; intravenous, 280 kBq, 2 min): 11.7 %ID/g
CCC/C(=C\C1=C(C(F)(F)F)C(=O)c2ccccc2C1=O)C(=O)N(CC)CC — CLint scaled (human liver S9; 1 µM, pH 7.4, metabolism): 5.9 mL/min/kg
COc1ccc(-c2ccn(CC[C@](C)(C(=O)NO)S(C)(=O)=O)c(=O)c2)c(F)c1 — AUC (CF-1 mouse, female; subcutaneous, 75 mg/kg): 17600 ± 2490 ng·h/mL
CC(C)(C)C(=O)OCOP(=O)(O)C1CCCN(O)C1=O (stereo not drawn) — half-life ratio (cynomolgus monkey; intravenous, dose not given; relative to: monkey over mouse): 10
CC(C)c1cnc(-c2cc(Cl)ccc2F)cc1Nc1ccncc1C(=O)NC(CO)CO — patients with related SAE (item: anaemia; human patients; oral, dose not given, grade 3): 4.8%
CCC(C)N(C)C(=O)c1nc(-c2cccc(C(F)(F)[18F])c2)c2ccccc2n1 (stereo not drawn) — alpha half-life (healthy mice, blood; intravenous, 3.7 MBq): ~7.89 min
C[C@H](Oc1cc(-c2cnn(C3CCN(CC[18F])CC3)c2)cnc1N)c1c(Cl)ccc(F)c1Cl — tracer uptake (PET imaging; nude mouse, kidney; iv, 30 min post injection): 3.2 ± 0.9 %ID/cc
Cn1c(=O)oc2ccc(-c3ccc(CC(C#N)NC(=O)C4CNCCCO4)c(F)c3)cc21 (stereo not drawn) — fibrinogen decreased incidence (human; oral, 10 mg once daily, TEAE, multiple ascending dose): 0%
Cn1cncn1.[Ru+2].c1cc(-c2ccc3ccccc3n2)nc(-c2ccc3ccccc3n2)c1.c1ccc2cc3nc4c5cccnc5c5ncccc5c4nc3cc2c1 — ligand exchange quantum yield (acetonitrile; concentration not given, irradiation 500 nm): 0.025
CCOC(=O)c1[nH]c(C)c(/C=C/c2c(I)c(C)c3n2[B-](F)(F)[N+]2=C(C)C(I)=C(C)C2=C3c2cc(OC)cc(OC)c2)c1C — log molar absorptivity (dichloromethane): 4.85 M⁻¹ cm⁻¹
O=C(NCCCN(CCCCN(CCCNC(=O)c1cccc(=O)n1[O-])C(=O)c1cccc(=O)n1[O-])C(=O)c1cccc(=O)n1[O-])c1cccc(=O)n1[O-].[89Zr+4] — intact complex (radio-TLC; PBS; 1 d, pH 7.4, 37 °C, together with: Cu^2+ 10-fold excess): 98.1 ± 2.7%
CC(C)C[C@@H](NC(=O)[C@H](NC(=O)[C@H]1CCCN1)[C@H](C)O)C(=O)N[C@H](Cc1c[nH]cn1)C(=O)N[C@@H](C(=O)N[C@H](Cc1c[nH]cn1)C(=O)N[C@H](CC(N)=O)C(=O)N[C@H](CCCNC(=N)N)C(=O)N[C@H](CCCNC(=N)N)C(=O)N[C@H](CCCNC(=N)N)C(=O)N[C@H](CCCNC(=N)N)C(=O)N[C@H](CCCNC(=N)N)C(N)=O)[C@H](C)O — AUC(0-inf) (beagle dog, plasma; oral, 50 mg/kg, single dose): 26000 ng·h/mL
Cc1ncc2c(n1)CN(C(=O)Nc1nc(-c3cccs3)ccc1N)C2 — AUC (male beagle dog, plasma; oral, 45 mg/kg, multiple doses, once daily): 11500 ng·h/mL
